Literature values that unrelated publications cite.
Lines come from different studies, so protocols differ.

CC(O)CN1CCN(CC[S+]([O-])C(c2ccc(F)cc2)c2ccc(F)cc2)CC1 (stereo not shown)  half-life (mouse liver microsomes): 1 h
Clc1cc2c(cc1Cl)Oc1cc(Cl)c(Cl)cc1O2  half-life (mouse): 192 to 288 h
O=C(O)C(F)(F)C(F)(F)C(F)(F)C(F)(F)C(F)(F)C(F)(F)F  half-life (human): 1680 h
CC(C)OC(=O)[C@@H](N)Cc1ccc(OP2(=O)CO[C@@H](Cn3ccc(N)nc3=O)CO2)cc1 (stereo partly shown)  half-life (PBS; pH 6.5, Rp isomer): 12.8 h
CC(O)CN1C(C)CN(CCSC(c2ccc(F)cc2)c2ccc(F)cc2)CC1C (stereo not shown)  half-life (mouse liver microsomes): 0.333 h
O=C(O)C(F)(F)C(F)(F)C(F)(F)C(F)(F)C(F)(F)C(F)(F)C(F)(F)C(F)(F)C(F)(F)C(F)(F)F  half-life (human): 105000 h
COC(=O)C(N)Cc1ccc(OP2(=O)COC(Cn3ccc(N)nc3=O)CO2)cc1 (stereo not shown)  half-life (PBS; pH 6.5, Rp isomer): 6.42 h
COc1c(OCCCN2CCOCC2)ccc2c1N=C(NC(=O)c1cnc(N)nc1)N1CCN=C21  half-life (human; dose not given, at MTD): ~38 h
CC(C)(C)NC(=O)[C@@H](N)Cc1ccc(OP2(=O)CO[C@@H](Cn3ccc(N)nc3=O)CO2)cc1 (stereo partly shown)  half-life (PBS; pH 6.5, Sp isomer): 3.5 h
O=S(=O)(O)C(F)(F)C(F)(F)C(F)(F)C(F)(F)C(F)(F)C(F)(F)F  half-life (mouse, male): 672 h
O=C(O)C(F)(F)C(F)(F)C(F)(F)C(F)(F)C(F)(F)C(F)(F)C(F)(F)C(F)(F)C(F)(F)F  half-life (human): 60000 h
CCOC(=O)C1=C(CN2CCOCC2)NC(c2nccs2)=NC1c1ccc(F)cc1Br (stereo not shown)  half-life: 1.78 h
O=S(=O)(O)C(F)(F)C(F)(F)C(F)(F)C(F)(F)F  half-life (human): 624 h
NCCc1c[nH]c2ccc(O)cc12  half-life (solution stability): 264 h
O=C(O)C(F)(F)C(F)(F)C(F)(F)C(F)(F)C(F)(F)F  half-life (human): 768 h
COC(CNC(=O)c1ccccc1OCC(=O)O)[CH2][Hg][OH] (stereo not shown)  half-life (plasma): < 1 h

A few entries again:
CC(C)(C)NC(=O)[C@@H](N)Cc1ccc(OP2(=O)CO[C@@H](Cn3ccc(N)nc3=O)CO2)cc1 (stereo partly shown)  half-life (PBS; pH 6.5, Sp isomer): 3.5 h
O=S(=O)(O)C(F)(F)C(F)(F)C(F)(F)C(F)(F)C(F)(F)C(F)(F)F  half-life (mouse, male): 672 h
